Results pooled from the literature.
Lines come from different studies, so protocols differ.
Technique: steady-state kinetics
B1: enzyme (Vitis vinifera, UniProt F6HSW4); chain MAVDSGLSSPLGPPACEKDAKALQFIEEMTRNPDQVQEKILAEILSQNGETEYLQRFKLAGATDRDTFKSKVPVVTYEDLQPDIQRIANGDRSPILSSHPISEFLTSSGTSAGERKLMPTIHEEWDRRQKLYSLLMPVMNLYVPGLDKGKGLYFLFVKSETKTPSGLVARPVLTGYYRSEHFKKRPYDPYNVYTSPDEAILCVDSFQSMYAQMLCGLLMHKEVLRVGAVFASGLLRAIRFLQVHWQQLAHDISTGILNPKITDPSVREGLAGILKPSQELADFIIQECSGGNWERIITRIWPNTKYLDVIVTGAMAQYIPTLDYFSGGIPLACTMYASSECYFGLNLKPMSKPSEVSYTIMPNMGYFEFLPHDPSAPPLSRDSPPRLVDLADVEVGKEYELVITTYAGLCRYRVGDILQVTGFHNSAPQFQFIRRKNVLLSIDSDKTDEAELQKAVENASLLLREFNTSVVEYTSFADTKTIPGHYVIYWELLVKDPSNSPTDTVLKQCCLAMEESLNTVYRQGRVADNSIGPLEIRVVKSGTFEELMDYAISRGASINQYKVPRCVNFTPIMELLDSRVLSTYFSPAAPHWTPERRRTD
B2: Paox (Mus musculus, UniProt Q8C0L6); chain MAFPGPRVLVVGSGIAGLGAAQKLCSHRAAPHLRVLEATASAGGRIRSERCFGGVVELGAHWIHGPSQDNPVFQLAAEFGLLGEKELSEENQLVDTGGHVALPSMIWSSSGTSVSLELMTEMARLFYGLIERTREFLNESETPMASVGEFLKKEISQQVASWTEDDEDTRKRKLAILNTFFNIECCVSGTHSMDLVALAPFGEYTVLPGLDCILAGGYQGLTDRILASLPKDTVAFDKPVKTIHWNGSFQEAAFPGETFPVLVECEDGARLPAHHVIVTVPLGFLKEHQDTFFEPPLPAKKAEAIKKLGFGTNNKIFLEFEEPFWEPDCQFIQVVWEDTSPLQDTALSLQDTWFKKLIGFLVQPSFESSHVLCGFIAGLESEFMETLSDEEVLLSLTQVLRRVTGNPQLPAAKSVRRSQWHSAPYTRGSYSYVAVGSTGDDLDLMAQPLPEDGTGTQLQVLFAGEATHRTFYSTTHGALLSGWREADRLVSLWDSQVEQSRPRL
B3: enzyme (Tanacetum cinerariifolium, UniProt H6U1I8); chain SQQAAALFIFGDSVFDPGNNNHINTHVNFKANFWPYGQSYFSSPTGRFSDGRIIPDFIAEYASLPIIPAYLEPNNDFTHGANFASAGAGALIASHAGLAVGLQTQLRYFGDLVDHYRQNLGDIKSRQLLSDAVYLFSCGGNDYQSPYYPYTQEQYVDIVIGNMTNVIKGIYEKGGRKFGVVNVPLIGCWPGMRAKQPGNTCNTEVDELTRLHNQAFAKRLEQLEKQLEGFVYAKFDLSTAILNRMKNPSKYGFKEGESACCGSGPFGGNYDCGRIKEFGLCDNATEYFFFDPFHPNELASRQFAEMFWDGDSMVTQPYNLKALFEGKPSTKYLPNDEL
B4: MsrP (Escherichia coli, UniProt P76342); chain DLLSWFKGNDRPPAPAGKALEFSKPAAWQNNLPLTPADKVSGYNNFYEFGLDKADPAANAGSLKTDPWTLKISGEVAKPLTLDHDDLTRRFPLEERIYRMRCVEAWSMVVPWIGFPLHKLLALAEPTSNAKYVAFETIYAPEQMPGQQDRFIGGGLKYPYVEGLRLDEAMHPLTLMTVGVYGKALPPQNGAPVRLIVPWKYGFKGIKSIVSIKLTRERPPTTWNLAAPDEYGFYANVNPYVDHPRWSQATERFIGSGGILDVQRQPTLLFNGYAAQVASLYRGLDLRENF
B5: enzyme F187A (Thermococcus kodakarensis, UniProt Q5JID5); chain MLYVEILGNLPEMARDEVKAMLELGGGEIIGQDYLFLKVDAGEKAFPFLDRLGLAHEYGLLLVEADSVEELLQKAGEVEWPIKGAFKVDTETMANCRHDVLDLPRKLGAVIHAQGFRVNLSKPDTVVRVYCGERLYAGIRLRYFDPKDFEKRKAHHRPFFRPISLHPRVSRALVNLTKATREILDPAMGAGGILIEAGLLGLRVYGVDIRPEMVEGAETNLKHYGVRDYTLKLGDATRLEDLFPDKKFEAVATDPPYGTAATLAGRKRDELYRKALRSIYNVLEDGGRLAIAFPTDFNGKAEAEAVGFRTLGRYYQRVHKSLERYFYVFEK
B6: enzyme (UniProt A0A8H4KFE3); chain MATMQKEFTAYQARFEELKKSDNPYGRGIAWVQGELVPLHEARIPLLDQGFLHSDLTYDVPAVWDGKIFRLDDHIARLDASCKKIRLQMPMSHEAMKQTLCDMLAKSGIRDAFIQLIVTRGIKGVRESEPHEQVNTLYMFIQPYVWVMEPEMQLTGGHAIVARTVRRTPPGSIDPTVKNHQWGDLTRAMHEARDRGAKYPFLTDGDTNLTEGSGFNMCFIKDGKLYTADRGVLEGITRKSVFDVARANNIEIRCETVPVAIAYEADEIFMCTTAGGVMPITTLDGAPVKDGKIGPITRTIWDGYWAMHYDPAYTIAVKYD
B7: TcC (Trypanosoma cruzi, UniProt Q4DGA3); chain MPREYEFAEKILFTEEEIRTRIMEVAKRIADDYKGKGLRPYVNPLVLISVLKGSFMFTADLCRALSDFNVPVRMEFICVSSYGEGVTSSGQVRMLLDTRHSIEGHHVLIVEDIVDTALTLNYLYHMYFTRRPASLKTVVLLDKREGRRVPFSADYVVANIPNAFVIGYGLDYDDTYRELRDIVVLRPEVYAEREAARQKKQRAIGSADTDRDAKREFHSKY
Chain of UniProt I0DFJ0 (whole entry, looked up): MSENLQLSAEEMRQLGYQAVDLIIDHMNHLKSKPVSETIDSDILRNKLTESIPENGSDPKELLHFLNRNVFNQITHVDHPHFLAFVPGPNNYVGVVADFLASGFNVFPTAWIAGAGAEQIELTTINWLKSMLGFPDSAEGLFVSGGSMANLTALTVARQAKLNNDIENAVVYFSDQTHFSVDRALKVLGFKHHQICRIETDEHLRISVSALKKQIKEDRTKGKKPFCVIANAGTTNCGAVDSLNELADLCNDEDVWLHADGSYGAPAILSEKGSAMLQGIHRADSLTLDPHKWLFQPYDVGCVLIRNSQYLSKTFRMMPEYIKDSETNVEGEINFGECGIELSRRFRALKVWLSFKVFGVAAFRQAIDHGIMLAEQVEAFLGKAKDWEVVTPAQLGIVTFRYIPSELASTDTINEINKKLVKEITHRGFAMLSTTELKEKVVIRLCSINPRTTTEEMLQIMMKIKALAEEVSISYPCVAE
Chain of UniProt P62694 (whole entry, looked up): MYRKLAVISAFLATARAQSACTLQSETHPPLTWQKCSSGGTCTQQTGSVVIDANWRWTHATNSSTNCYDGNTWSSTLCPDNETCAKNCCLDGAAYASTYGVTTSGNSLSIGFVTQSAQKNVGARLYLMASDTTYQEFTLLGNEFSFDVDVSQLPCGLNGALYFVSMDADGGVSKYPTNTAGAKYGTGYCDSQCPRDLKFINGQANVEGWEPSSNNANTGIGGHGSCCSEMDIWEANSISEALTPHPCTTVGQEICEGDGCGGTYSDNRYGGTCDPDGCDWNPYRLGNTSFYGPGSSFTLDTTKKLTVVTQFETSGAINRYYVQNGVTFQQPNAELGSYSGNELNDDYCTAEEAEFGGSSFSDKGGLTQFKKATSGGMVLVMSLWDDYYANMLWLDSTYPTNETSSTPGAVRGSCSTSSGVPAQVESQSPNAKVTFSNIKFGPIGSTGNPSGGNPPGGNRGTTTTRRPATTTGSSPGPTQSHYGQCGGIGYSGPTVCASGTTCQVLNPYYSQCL

Molecule	substrate	conditions	Km
B1 (enzyme)	O=C(O)Cc1cccc2ccccc12	pH 8.6, 25 °C	554 µM
aromatic amino acid decarboxylase (Bacillus atrophaeus, UniProt I0DFJ0)	N[C@@H](Cc1c[nH]c2c(Cl)cccc12)C(=O)O	pH 7, 37 °C, not purified, with: PLP 40 µM	700 µM
Ptb (Listeria monocytogenes, UniProt Q8Y7B7)	CCC(=O)SCCNC(=O)CCNC(=O)[C@H](O)C(C)(C)COP(=O)(O)OP(=O)(O)OC[C@H]1O[C@@H](n2cnc3c(N)ncnc32)[C@H](O)[C@@H]1OP(=O)(O)O	pH 7.5, 25 °C, apparent	191 µM
B2 (Paox)	c1ccc(CNCCCCNCc2ccccc2)cc1	pH 8.6, 30 °C	27 µM
B3 (enzyme)	CC/C=C\CC1=C(C)[C@@H](O)CC1=O	pH 7.5, 25 °C	822 µM
enzyme (Oenococcus oeni, UniProt Q04DP9)	O=[N+]([O-])c1ccc(O[C@@H]2O[C@H](CO)[C@@H](O)[C@H](O)[C@H]2O)cc1	pH 5.5, 37 °C	170 µM
cbh1 (Trichoderma reesei, UniProt P62694)	O=[N+]([O-])c1ccccc1O[C@@H]1O[C@H](CO)[C@@H](O[C@@H]2O[C@H](CO)[C@@H](O)[C@H](O)[C@H]2O)[C@H](O)[C@H]1O	pH 5, 25 °C, apparent	7 µM
B4 (MsrP)	C[S@@+]([O-])CC[C@H](N)C(=O)O	pH 7, 30 °C, with: benzyl viologen 0.4 mM	25700 µM
B5 (enzyme F187A)	C[S+](CC[C@H](N)C(=O)O)C[C@H]1O[C@@H](n2cnc3c(N)ncnc32)[C@H](O)[C@@H]1O	pH 7.5, 50 °C, apparent	23 µM
B6 (enzyme)	CC(C)(C)OC(=O)N1CCCC(=O)C1	pH 7, 30 °C	670 µM
B7 (TcC)	O=c1[nH]c(=O)c2[nH]cnc2[nH]1	pH 8.3, 37 °C, apparent, with: PRPP 1 mM, MgCl2 12 mM	150 µM
